Experimental data from different studies.
Protocols differ between the studies behind these lines. Numbers after ± are the reported error.
uncharacterized protein: uncharacterized protein (Canis lupus familiaris, UniProt A0A8I3P1R6)
HTR1E: 5-hydroxytryptamine receptor 1E (HTR1E, Homo sapiens, UniProt P28566)
UniProt P28566, sequence (whole entry, looked up): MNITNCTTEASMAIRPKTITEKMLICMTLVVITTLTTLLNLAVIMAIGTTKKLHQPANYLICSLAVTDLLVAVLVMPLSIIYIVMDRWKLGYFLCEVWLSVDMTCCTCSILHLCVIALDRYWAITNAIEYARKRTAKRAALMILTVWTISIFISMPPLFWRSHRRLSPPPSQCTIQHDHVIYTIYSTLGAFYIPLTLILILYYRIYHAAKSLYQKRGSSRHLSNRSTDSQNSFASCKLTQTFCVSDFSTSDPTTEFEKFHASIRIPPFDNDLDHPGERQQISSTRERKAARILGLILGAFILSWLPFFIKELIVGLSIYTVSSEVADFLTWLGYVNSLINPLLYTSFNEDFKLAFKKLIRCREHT
Peroxisome proliferator-activated receptor alpha: Peroxisome proliferator-activated receptor alpha (Rattus norvegicus, UniProt P37230)
UniProt P37230, sequence (whole entry, looked up): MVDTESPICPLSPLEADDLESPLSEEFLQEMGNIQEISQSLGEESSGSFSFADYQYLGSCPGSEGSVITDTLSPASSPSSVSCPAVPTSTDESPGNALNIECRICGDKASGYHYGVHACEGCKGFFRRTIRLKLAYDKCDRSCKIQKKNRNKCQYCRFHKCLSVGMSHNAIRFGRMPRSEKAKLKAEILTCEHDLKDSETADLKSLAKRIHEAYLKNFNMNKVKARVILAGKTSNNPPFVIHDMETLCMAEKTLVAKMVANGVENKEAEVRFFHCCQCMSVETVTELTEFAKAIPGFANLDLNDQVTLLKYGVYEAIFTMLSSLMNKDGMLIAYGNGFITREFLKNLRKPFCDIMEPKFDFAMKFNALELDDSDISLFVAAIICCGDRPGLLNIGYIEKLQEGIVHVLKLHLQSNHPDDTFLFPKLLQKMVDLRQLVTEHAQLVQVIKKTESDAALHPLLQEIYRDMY
UniProt Q13258, sequence (whole entry, unmodified, looked up): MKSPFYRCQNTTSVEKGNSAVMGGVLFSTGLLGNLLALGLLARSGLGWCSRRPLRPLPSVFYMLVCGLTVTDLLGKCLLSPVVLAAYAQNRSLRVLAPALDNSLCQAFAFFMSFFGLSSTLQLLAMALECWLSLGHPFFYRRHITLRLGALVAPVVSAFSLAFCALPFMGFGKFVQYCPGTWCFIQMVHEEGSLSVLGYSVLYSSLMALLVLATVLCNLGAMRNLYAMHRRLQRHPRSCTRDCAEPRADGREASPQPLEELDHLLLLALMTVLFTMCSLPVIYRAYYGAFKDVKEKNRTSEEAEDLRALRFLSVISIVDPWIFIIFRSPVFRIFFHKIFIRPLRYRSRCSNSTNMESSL
UniProt P34995, sequence (whole entry, unmodified, looked up): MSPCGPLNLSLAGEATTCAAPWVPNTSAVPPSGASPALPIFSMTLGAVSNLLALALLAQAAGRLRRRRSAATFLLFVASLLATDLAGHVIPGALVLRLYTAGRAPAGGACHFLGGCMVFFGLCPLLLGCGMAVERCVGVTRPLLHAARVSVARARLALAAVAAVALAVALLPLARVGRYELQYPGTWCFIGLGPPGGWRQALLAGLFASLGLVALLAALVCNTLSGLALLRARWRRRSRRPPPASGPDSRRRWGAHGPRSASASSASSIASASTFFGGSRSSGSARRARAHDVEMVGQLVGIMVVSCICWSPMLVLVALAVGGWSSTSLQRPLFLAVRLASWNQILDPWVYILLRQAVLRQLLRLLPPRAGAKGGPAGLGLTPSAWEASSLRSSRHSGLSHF
UniProt Q8N884, sequence (whole entry, looked up): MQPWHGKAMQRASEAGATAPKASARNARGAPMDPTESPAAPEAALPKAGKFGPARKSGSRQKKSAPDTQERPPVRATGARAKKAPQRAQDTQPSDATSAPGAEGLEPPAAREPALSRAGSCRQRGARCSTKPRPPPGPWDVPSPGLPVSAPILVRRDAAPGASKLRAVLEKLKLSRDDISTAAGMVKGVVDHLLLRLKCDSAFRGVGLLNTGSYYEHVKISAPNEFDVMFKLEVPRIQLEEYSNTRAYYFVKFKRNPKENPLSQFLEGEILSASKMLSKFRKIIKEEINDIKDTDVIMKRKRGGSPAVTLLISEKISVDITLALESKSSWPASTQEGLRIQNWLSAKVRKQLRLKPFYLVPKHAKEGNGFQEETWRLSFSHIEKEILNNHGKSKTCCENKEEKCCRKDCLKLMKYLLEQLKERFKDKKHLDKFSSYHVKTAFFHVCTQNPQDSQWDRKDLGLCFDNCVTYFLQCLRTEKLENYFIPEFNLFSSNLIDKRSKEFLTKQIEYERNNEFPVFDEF
UniProt Q15077, sequence (whole entry, looked up): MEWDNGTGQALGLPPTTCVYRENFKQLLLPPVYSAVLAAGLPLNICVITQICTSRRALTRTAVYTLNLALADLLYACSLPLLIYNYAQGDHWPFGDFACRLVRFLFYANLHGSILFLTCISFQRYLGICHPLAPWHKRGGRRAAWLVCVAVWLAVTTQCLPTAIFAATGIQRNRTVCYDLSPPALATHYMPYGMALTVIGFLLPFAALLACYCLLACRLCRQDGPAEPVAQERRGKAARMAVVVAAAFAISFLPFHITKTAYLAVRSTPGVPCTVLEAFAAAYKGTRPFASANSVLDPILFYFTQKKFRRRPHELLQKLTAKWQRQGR
UniProt Q15391, sequence (whole entry, unmodified, looked up): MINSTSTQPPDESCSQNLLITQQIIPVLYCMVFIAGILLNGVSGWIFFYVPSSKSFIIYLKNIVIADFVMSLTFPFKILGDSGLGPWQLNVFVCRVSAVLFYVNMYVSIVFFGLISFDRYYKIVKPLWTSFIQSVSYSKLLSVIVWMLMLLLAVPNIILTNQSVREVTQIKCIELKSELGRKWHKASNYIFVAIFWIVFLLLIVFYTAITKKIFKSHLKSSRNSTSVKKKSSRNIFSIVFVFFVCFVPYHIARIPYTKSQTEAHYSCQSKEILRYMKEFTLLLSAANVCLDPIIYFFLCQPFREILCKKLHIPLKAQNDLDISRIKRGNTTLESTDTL
UniProt P21728, sequence (whole entry, looked up): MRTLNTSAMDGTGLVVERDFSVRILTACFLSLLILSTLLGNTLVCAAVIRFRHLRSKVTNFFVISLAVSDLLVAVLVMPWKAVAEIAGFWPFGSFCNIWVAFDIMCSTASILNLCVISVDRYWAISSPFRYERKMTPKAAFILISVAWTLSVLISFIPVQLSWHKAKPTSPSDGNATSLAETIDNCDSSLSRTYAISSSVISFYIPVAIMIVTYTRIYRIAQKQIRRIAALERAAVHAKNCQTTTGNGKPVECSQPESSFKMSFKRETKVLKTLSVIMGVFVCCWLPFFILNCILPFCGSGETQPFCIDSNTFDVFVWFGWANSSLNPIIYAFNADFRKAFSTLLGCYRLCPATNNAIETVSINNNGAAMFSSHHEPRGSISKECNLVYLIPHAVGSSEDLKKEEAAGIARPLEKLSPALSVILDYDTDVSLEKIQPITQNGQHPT
UniProt O97666, sequence (whole entry, looked up): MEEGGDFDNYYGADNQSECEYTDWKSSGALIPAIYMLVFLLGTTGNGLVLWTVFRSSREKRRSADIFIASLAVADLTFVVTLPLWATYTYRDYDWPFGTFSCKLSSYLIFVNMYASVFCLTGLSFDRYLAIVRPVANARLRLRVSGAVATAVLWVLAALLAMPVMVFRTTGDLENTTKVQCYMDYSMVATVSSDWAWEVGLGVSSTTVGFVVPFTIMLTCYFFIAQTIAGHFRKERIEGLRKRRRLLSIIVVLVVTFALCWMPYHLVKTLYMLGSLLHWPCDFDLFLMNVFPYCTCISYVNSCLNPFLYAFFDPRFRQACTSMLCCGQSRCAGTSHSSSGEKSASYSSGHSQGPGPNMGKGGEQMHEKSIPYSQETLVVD

| Compound | target or system | test | system | conditions | scale | measurement | result |
| --- | --- | --- | --- | --- | --- | --- | --- |
| COc1c(O)c(C)cc2c1C(=O)c1c(O)cccc1C2=O | HK-2 co-cultured with HepaRG | MTT |  | 133.33 µM, 48 h | reference: untreated control | viability | 63.7 ± 8.09% |
| CCCCC[C@H](O)/C=C/[C@H]1[C@H](O)CC(=O)[C@@H]1C/C=C\CCCC(=O)O | PTGER1 (Homo sapiens, UniProt P34995, P39A) | IP1 accumulation, agonist | AD293 | EP1 P39A mutant |  | EC50 | 3.86 nM |
| Cc1cnc(C)c(C)n1 | uncharacterized protein | cAMP level, agonist, cAMP luminescence | HEK293 cells |  |  | EC50 | 600000 ± 39800 nM |
| CC(C)C[C@H](NC(=O)C[C@H](O)[C@H](CC(C)C)NC(=O)[C@H](Cc1c[nH]cn1)NC(=O)CNC(=O)[C@@H](NC(=O)[C@H](C)NC(=O)[C@H](Cc1c[nH]c2ccccc12)NC(=O)[C@H](CCC(N)=O)NC(=O)[C@@H](Cc1ccccc1)NC(=O)COCCOCCNC(=O)CCC(C(=O)O)N1CCN(CC(=O)O)CCN(CC(=O)O)CCN(CC(=O)O)CC1)C(C)C)C(N)=O (stereo partly drawn) [lutetium-177 labelled] |  |  | female BALB/c nu/nu mice, liver | intravenous, 50 pmol, 24 h |  | tissue uptake | 0.054 ± 0.013 %ID/g |
| COc1nccnc1C(C)C | uncharacterized protein | cAMP level, agonist, cAMP luminescence | HEK293 cells |  |  | EC50 | 293000 ± 34600 nM |
| CN(C)CCC=C1c2ccccc2C=Cc2ccccc21 | HTR1E | agonist |  |  |  | EC50 | 425 nM |
| CCc1ncc(C)nc1CC | uncharacterized protein | cAMP level, agonist, cAMP luminescence | HEK293 cells |  |  | EC50 | 61700 ± 12300 nM |
| Cc1nn(-c2nc3c(F)cc(F)cc3s2)c(O)c1C(c1ccccc1C(=O)O)c1c(C)nn(-c2nc3c(F)cc(F)cc3s2)c1O | Cyclic GMP-AMP synthase, catalytic domain; with DNA (CGAS, Homo sapiens, UniProt Q8N884) | cGAS-DNA condensate disruption |  | concentration not given, added: Cy3-labelled DNA |  | EC50 | 1200 ± 200 nM |
| CSc1ccc(C(=O)/C=C/c2cc(C)c(OC(C)(C)C(=O)O)c(C)c2)cc1 | Peroxisome proliferator-activated receptor alpha | receptor activation, agonist, luciferase reporter |  | serum-free, species rat |  | EC50 | 700 nM |
| CCc1nccnc1C | uncharacterized protein | cAMP level, agonist, cAMP luminescence | HEK293 cells |  |  | EC50 | 338000 ± 1990 nM |
| Cn1cc2c(C(=O)O)ccc(NS(=O)(=O)c3ccc(OCC4CCC4)c(Cl)c3)c2n1 | DRD1 (Homo sapiens, UniProt P21728) | antagonist |  |  |  | EC50 | > 10000 nM |
| CCCCC[C@H](O)/C=C/[C@H]1C(=O)C[C@H](O)[C@@H]1C/C=C\CCCC(=O)O | PTGDR (Homo sapiens, UniProt Q13258, K76R) | Gs protein activation, agonist, BRET |  |  |  | EC50 | 4170 nM |
| C=CCc1ccc(OC)c(OC)c1 | uncharacterized protein | cAMP level, agonist, cAMP luminescence | HEK293 cells |  |  | EC50 | 70300 ± 29300 nM |
| COc1cc2c(c(OC)c1OC)C(=O)c1c(cc(C)c(O)c1OC)C2=O | HK-2 co-cultured with HepaRG | MTT |  | 266.67 µM, 24 h | reference: untreated control | viability | 58.8 ± 2.98% |
| Nc1nc2c(ncn2[C@@H]2O[C@@H]3COP(=O)(O)O[C@H]3[C@H]2O)c(=O)[nH]1 | Cone cGMP-gated channel (Morone saxatilis, UniProt Q3I0N1+Q3I0N2) | channel current, agonist, suction electrode | Morone saxatilis, cone outer segments | added: 0.5 µM Ca2+ |  | EC50 | 197000 ± 55800 nM |
| COc1nccnc1CC(C)C | uncharacterized protein | cAMP level, agonist, cAMP luminescence | HEK293 cells |  |  | EC50 | 148000 ± 27200 nM |
| O=C(O)CCCc1cc2cc(Cl)ccc2n1S(=O)(=O)c1ccc2ncsc2c1 | Peroxisome proliferator-activated receptor alpha | receptor activation, agonist, luciferase reporter |  | serum-free, species rat |  | EC50 | 3000 nM |
| CN1CCN2c3ncccc3Cc3ccccc3C2C1 (stereo not drawn) | HTR1E | agonist |  |  |  | EC50 | 614 nM |
| CCOCc1nc(O)c(-c2nnc(Cc3ccc(Cl)cn3)o2)c(O)c1-c1c(OC)cccc1OC | Apelin receptor (APLNR, Macaca mulatta, UniProt O97666) | cAMP inhibition, agonist | HEK293 | monkey receptor |  | EC50 | 0.08 ± 0.04 nM |
| O=c1ccn([C@@H]2O[C@H](COP(=O)(O)OP(=O)(O)OP(=O)(O)O)[C@@H](O)[C@H]2O)c(=O)[nH]1 | P2Y purinoceptor 6 (P2RY6, Homo sapiens, UniProt Q15077) | agonist, cell-based |  |  |  | EC50 | 94.2 nM |
| Nc1ncnc2c1ncn2[C@@H]1O[C@H](COP(=O)(O)OP(=O)(O)O[C@H]2O[C@H](CO)[C@@H](O)[C@H](O)[C@H]2O)[C@@H](O)[C@H]1O | P2Y purinoceptor 14 (P2RY14, Homo sapiens, UniProt Q15391) | calcium mobilisation, agonist | cells with Gαqi5 | receptor mutant Wt |  | EC50 | 1350 ± 123 nM |

Excerpt of the above:
| Compound | target or system | test | system | conditions | scale | measurement | result |
| --- | --- | --- | --- | --- | --- | --- | --- |
| CC(C)C[C@H](NC(=O)C[C@H](O)[C@H](CC(C)C)NC(=O)[C@H](Cc1c[nH]cn1)NC(=O)CNC(=O)[C@@H](NC(=O)[C@H](C)NC(=O)[C@H](Cc1c[nH]c2ccccc12)NC(=O)[C@H](CCC(N)=O)NC(=O)[C@@H](Cc1ccccc1)NC(=O)COCCOCCNC(=O)CCC(C(=O)O)N1CCN(CC(=O)O)CCN(CC(=O)O)CCN(CC(=O)O)CC1)C(C)C)C(N)=O (stereo partly drawn) [lutetium-177 labelled] |  |  | female BALB/c nu/nu mice, liver | intravenous, 50 pmol, 24 h |  | tissue uptake | 0.054 ± 0.013 %ID/g |
| COc1nccnc1C(C)C | uncharacterized protein | cAMP level, agonist, cAMP luminescence | HEK293 cells |  |  | EC50 | 293000 ± 34600 nM |
| CN(C)CCC=C1c2ccccc2C=Cc2ccccc21 | HTR1E | agonist |  |  |  | EC50 | 425 nM |
| CCc1ncc(C)nc1CC | uncharacterized protein | cAMP level, agonist, cAMP luminescence | HEK293 cells |  |  | EC50 | 61700 ± 12300 nM |
